Experimental data pooled from the literature.
Numbered parts are unrelated; each lists some results of a single study.

Block 1
Target: Prothrombin, mature alpha-thrombin (F2, Homo sapiens, UniProt P00734)
Technique: aptamer microarray, sandwich
Molecule type: DNA with 2'F-ANA
Matrix: in vitro
Concentration: 200 nM
Setting: whole 15-mer aptamer, many near background
With: Cy3 exosite-II aptamer, 400 nM
Reading: higher = stronger binding
Endpoint: mean fluorescence intensity
Sequence: GGTTGGTGTGGTTGG
2'F-ANA at 2 3 5 6 9: 100 a.u.
2'F-ANA at 5 6 7 8 13 14 15: 52.4 a.u.
2'F-ANA at 1 4 7 8 10 11 14 15: 309 a.u.
2'F-ANA at 1 2 3 5 7 8 9 11 12 13 14: 52.8 a.u.
2'F-ANA at 2 5 6: 83.1 a.u.
2'F-ANA at 2 3 4 7 8 11 12: 852 a.u.
2'F-ANA at 3 5 6 7 9 10 11 15: 57.3 a.u.
2'F-ANA at 4 5 7 8 11 13 14 15: 56.9 a.u.
2'F-ANA at 1 4 6 9 12: 265 a.u.
2'F-ANA at 3 4 8 9 10 13 15: 241 a.u.
2'F-ANA at 1 2 3 6 7 8 9 12 13 15: 331 a.u.
2'F-ANA at 2 4 8 11 12 13: 464 a.u.
2'F-ANA at 2 5 6 7 8 10 11 12: 54.7 a.u.
2'F-ANA at 1 7 8 10 11 13 14 15: 70 a.u.
2'F-ANA at 1 3 5 6 7 8 11 12 14: 53.4 a.u.
2'F-ANA at 1 3 8 12 13 15: 552 a.u.
2'F-ANA at 5 6 9 13 14: 45.2 a.u.
2'F-ANA at 1 3 13 15: 305 a.u.
2'F-ANA at 1 2 3 5 8 9: 77.1 a.u.
2'F-ANA at 2 9 10 11 12 13 14 15: 87.9 a.u.
2'F-ANA at 3 5 7 8 9 10 11 13 15: 59.1 a.u.
2'F-ANA at 1 2 3 5 6 7 8 9 10 11 12: 53.1 a.u.
2'F-ANA at 1 2 5 7 8 9 11 12 13 15: 67.4 a.u.

Block 2
Target: RNA binding protein fox-1 homolog 2, RRM domain, GST-SBP tag (RBFOX2, Homo sapiens, UniProt O43251-10, residues 100-194)
Technique: RNA Bind-n-Seq
Molecule type: RNA
Matrix: in vitro
Concentration: 365 nM
Setting: natural RNA segment, single round, ends assumed
Reference: no-protein control
Reading: higher = stronger binding
Endpoint: RBNS enrichment (R)
Constant ends, left off below: GGGAGUUCUACAGUCCGACGAUC … UGGAAUUCUCGGGUGCCAA
Target sequence (chain): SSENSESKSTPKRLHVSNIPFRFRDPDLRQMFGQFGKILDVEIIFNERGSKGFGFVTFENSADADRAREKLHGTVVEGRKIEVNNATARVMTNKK
ACCUUGCAGCAGAUUUGACAUUGCUGCAUAGAAGGGGCAGGUGUUGGUUUUUGUUUCUUGCAUUUCUCUGGGAUGUGAAACACUUGGCUAACAAACACAACUAAGGCCUC: 0.543
CAUUUCAAGAAAUUACAGACUUCAUUAAAGGUGUAAAUUAAAGUGGCUUGCCAAAAACGAGGAACUGAGUUAUGUUUCUGAUGACAACUGUCCUUUAUUUCCUAUCCUCU: 0.302
UUUAAAUAAAAUAAUAAGAUAAAAGGUGACAACCGCAGUUGACACCUAGCAUGUUUUGUGGACGCAGUCAAGCUGCCACAGUCUGGUCAUCGUUGUUGUUGUGCUGACGU: 3.12
UUUGUGUGUCCAGUGAAGGAACAGAACUAGAAGCCCAUUCAGCAACCUGUGAGAUUCUUACACAGGGGUUGGCUUCUCUAUGUUAGCCAGGGGUGCUGUAAGAACUCAGG: 0.738
UUAACCGUUCAAGCGGGGAAUUAAAACAAACUUUUGGACUAUUUUUUUUUAAUUGUUCUUUAUGUUUAAAACUUGCAGAGAUAGAAGCAGGCUUCUGAGGUACGGGGUCU: 0.609
GGUUUGUGAGCUCUCUGCUCUGUUUUUGCUGUUUACUGGACUUUGGUUUCUUUCAUAACCCAUUUCUUUAACCUCUUGUCAAUGAAAAUAAAAAGAAGAGGAAGGAAGGA: 1.49
UCUUUAUUAGUCUUUUUAAUGCCUCUAACCCUGUGGAAGCUGUCUGCACGCAGUAUCCCACUGUAGAGGAGAGCUCAGAGUGGGGGAGUAGGAGCCCUUGCUUGGGGUAC: 0.529
CCACUUUCCCCAGGAACACUCCCGUAGCUCCUUCAUCCAUUGCCAGUGGAGGGUUUUUAUUUUUAUUUUUUUAAAAGUUUAGGUGCCUUUGCGGAUGACCUCAUUUUGAU: 1.87
CUUCUAUUGUUUGGGCCUUGUGGAUAAUGUACAGAUUUAAAAACAAAUCUUGUUGCUGAUUUGUCCAUUUCUUUCCCUGCACUUUGUUACAUCUGGGAUACAGUCUAACU: 0.272
AGCCCAGGAAGCUGGCCCAGGCCUGCUCCUCUGUGUUUCCCCAUGGGCAGCGAUAGAGGCCAAGUAUCUUGUGGGCACUCCUGCCUAACCCUGCAUUGGGAUAUCGAAGC: 0.509
UACACCCUUCAUGGAAGUGUUGACAUGUGCCAAAGGGUACUCUGCACAUCACUUCCUUCCUGAAAGCCUAAGAGUGUGUAUGUUUGUGUAUGCACAGAGCAGACAGACUA: 0.268
ACAUGGCAAAGAUUGUAUGAAAUACCUGUUUUUCAGAAAAUAAAGGUUCAGUCUCAAAAGAUACAGCUUUAAGUUCUGAAUUUAUUGGUCAAAAUAGAUUUUGGAAAACU: 0.526

Block 3
Target: Histone acetyltransferase KAT6A, winged helix 1, GST fusion (KAT6A, Homo sapiens, UniProt Q92794, residues 1-85)
Technique: protein binding microarray
Molecule type: double-stranded DNA, one strand shown
Matrix: in vitro
Concentration: not given
Setting: 8-mer, flanks averaged, mean of 2 arrays, mostly near background
Reference: not given
Reading: higher = stronger binding
Endpoint: E-score
Construct (chain): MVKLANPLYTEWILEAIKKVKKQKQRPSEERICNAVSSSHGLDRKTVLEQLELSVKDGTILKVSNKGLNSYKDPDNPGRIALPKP
CTGCGTTA: 0.0333
AACAGTGT: -0.15
CGATTTAC: 0.0466
AGTTGGGG: -0.275
AAATATCA: -0.189
GAGAAGCC: 0.0573
AGATCAAG: -0.128
ATTCCGTA: 0.121
TCCCTCCA: 0.0215
AGTTTTGG: -0.116
CAGGTACA: -0.126
AATCCGGT: 0.017
ACGAGGGG: -0.139
ATTGACCG: 0.317
ATAGGGAG: -0.116
ACAGAAAG: -0.175
CCCAGCTC: -0.0996

Block 4
Target: Sal-like protein 4, full length isoform B (SALL4, Homo sapiens, UniProt Q9UJQ4-2, residues 1-616)
Technique: universal PBM
Molecule type: double-stranded DNA, one strand shown
Matrix: in vitro
Concentration: not given
Setting: 8-mer, flanks averaged, mean of replicates
Reading: higher = stronger binding
Endpoint: E-score
CAACGTGG: -0.163
GCTTTTAA: 0.0849
AGTCATTC: 0.0861
CGCATGCA: -0.0279
CAGAGTCG: -0.252
ACCTCAAT: 0.0206
CAAAAAAA: 0.291
CACGATCA: 0.0917
GGAACGGA: -0.0957
GAGACGAA: -0.0286
ACATTGTC: 0.154
CCACGTAA: -0.0346
CCGGAAAC: -0.191
CGTCGAAA: -0.0403
AGTGGTGC: -0.214
GATTTTCC: -0.0259
TATTCGCA: 0.165
CTCGACTC: -0.119
CGCTTATA: 0.104
CTCTGGGA: -0.27
ACACAGTG: -0.0394
CTAGATCA: -0.0266
ATCGGGAG: -0.0702

Block 5
Target: Centromere-binding protein 1, full length, N-terminal tag (CBF1, Saccharomyces cerevisiae, UniProt P17106, residues 1-351)
Sequence of UniProt P17106 (whole entry, looked up): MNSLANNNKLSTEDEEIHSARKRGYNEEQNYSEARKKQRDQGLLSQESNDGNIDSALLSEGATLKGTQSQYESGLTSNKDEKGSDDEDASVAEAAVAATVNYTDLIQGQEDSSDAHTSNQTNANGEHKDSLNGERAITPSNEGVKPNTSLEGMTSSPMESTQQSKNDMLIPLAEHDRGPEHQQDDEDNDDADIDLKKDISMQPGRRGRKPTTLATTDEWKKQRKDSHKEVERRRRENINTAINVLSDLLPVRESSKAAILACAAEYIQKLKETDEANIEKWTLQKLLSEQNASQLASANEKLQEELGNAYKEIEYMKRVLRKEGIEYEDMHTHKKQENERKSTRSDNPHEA
Technique: protein-binding microarray
Molecule type: double-stranded DNA, one strand shown
Matrix: in vitro
Concentration: 0.8 µM
Setting: whole 60-bp probe, no competitor
Reading: higher = stronger binding
Endpoint: fluorescence intensity
Constant ends, left off below: … GTCTTGATTCGCTTGACGCTGCTG
CCTAACTACTATAACCCCGTCACATAGCTTCGTACA: 512 a.u.
CTAACGTTACGGCACACCGTGATGTACCCGCATTTC: 548 a.u.
CTAGAAATGATTTAAAGTGATCACAGTGGCAATTTC: 583 a.u.
CTAATATAACATTAACATGTGCATGTACACACGTTC: 725 a.u.
GAACGTCCCTACATTGTGGTGATGGTGTATAACTAG: 520 a.u.
GAATAAGGTAGAAATTGCATCAGATAAAAGTGATAG: 554 a.u.
CTAATGAAAGTTGTGCGTGTGTTGGTTACTTAGTTC: 578 a.u.
GAAAATTGTTCATATCAGTTGAATCAGTTGCCATAG: 542 a.u.
CTACTCTCACAAAAAGACCTCACGTATTTTATGTTC: 547 a.u.
CTAGCACCTATCCACGAGAGAAAGCAAGGAACATTC: 541 a.u.
CTAACGTGTGGAGGACATCAGCCCGCAGCACATTTC: 482 a.u.
GAACTCGCATTTGGTCACGTCCTAAAAATTGTATAG: 1430 a.u.
GAAACTGAACTCAATGTGATGACCTGAAGCCACTAG: 519 a.u.
TGTACGAAGCTATCACACGTATTTATAGTAGTTAGG: 564 a.u.
CTATTCAGCATTGGTCACGCTAAAATATACGTTTTC: 806 a.u.
CTAAACTATGAATTTCACACCATATCCTTATCTTTC: 510 a.u.
CTAGATTATTTGGGTAAGCTGATGGTATTCTCCTTC: 518 a.u.
CTACCCGCGCTTGCGTGCATGTAACTAAGCAAATTC: 517 a.u.
GAAACGTATGTTAGTCACACGATTATATCCAGGTAG: 673 a.u.
CTACATTGTTAATAGGCTCAGCTGTTCATAAAATTC: 694 a.u.
CTATTGGCTTACGATCACGATGTCAATGATCATTTC: 899 a.u.
CTACACTGTTACAATTACCAGGTGAGTAGGATATTC: 604 a.u.
CCTAACTACTATAGTCACATCCCATAGCTTCGTACA: 526 a.u.
TGTACGAAGCTATATCACGTGTGTATAGTAGTTAGG: 9050 a.u.
CTACTTTTTTTCAAATGTGTGACACACCCATACTTC: 614 a.u.

Some of these lines once more (block 5):
GAAAATTGTTCATATCAGTTGAATCAGTTGCCATAG: 542 a.u.
GAAACGTATGTTAGTCACACGATTATATCCAGGTAG: 673 a.u.
CTAGAAATGATTTAAAGTGATCACAGTGGCAATTTC: 583 a.u.
CCTAACTACTATAACCCCGTCACATAGCTTCGTACA: 512 a.u.
GAACGTCCCTACATTGTGGTGATGGTGTATAACTAG: 520 a.u.
TGTACGAAGCTATCACACGTATTTATAGTAGTTAGG: 564 a.u.
CTAGATTATTTGGGTAAGCTGATGGTATTCTCCTTC: 518 a.u.
TGTACGAAGCTATATCACGTGTGTATAGTAGTTAGG: 9050 a.u.
CTAATATAACATTAACATGTGCATGTACACACGTTC: 725 a.u.
GAATAAGGTAGAAATTGCATCAGATAAAAGTGATAG: 554 a.u.
CTAACGTTACGGCACACCGTGATGTACCCGCATTTC: 548 a.u.
CTATTCAGCATTGGTCACGCTAAAATATACGTTTTC: 806 a.u.
CTACTTTTTTTCAAATGTGTGACACACCCATACTTC: 614 a.u.
CTACCCGCGCTTGCGTGCATGTAACTAAGCAAATTC: 517 a.u.
